Experimental data pooled from the literature.
Parts stem from different laboratories: compare values within a part only.

Series 1 — method: RNA Bind-n-Seq; form: RNA; matrix: in vitro; concentration: 365 nM; baseline: no-protein control; direction: higher = stronger binding
Target: RNA binding protein fox-1 homolog 2, RRM domain, GST-SBP tag (RBFOX2, Homo sapiens, UniProt O43251-10, residues 100-194)
Notes: natural RNA segment, single round, ends assumed
Strand | RBNS enrichment (R)
GGGAGUUCUACAGUCCGACGAUCUAAGCCUGGCUGGUGGGCAUAGUUAUUCUCAGCAUUGUGGUGGCAAAUGACGUUGGUUCUAGAGACUUAGAGACUUGGGCAAUAGGAUUUAACACUGCUAGGUAGCUCAGUGGAAUUCUCGGGUGCCAA | 2.26
GGGAGUUCUACAGUCCGACGAUCCACCUCUGCCUGACCCCAGCCUUAAACAUAGCCCCUGGCCAGAGGCCUUGCUGGGUGGAGCCUCUGUGUGACUCCAUACUCCUCCCACCACAACACUCAUCUGUCAAACAUGGAAUUCUCGGGUGCCAA | 0.69
GGGAGUUCUACAGUCCGACGAUCCUUCCAAGUUGACAGGCAAUUCCCACACUUCCUUCCUGUCCUGAGUGCCCCAGACUUUAACUGUGUAAAUAAGAGUGUUUCAUUCAAAUGUUAAUAAACUUUACACAGUAUGGAAUUCUCGGGUGCCAA | 0.503

Series 2 — method: protein binding microarray; form: double-stranded DNA, one strand shown; matrix: in vitro; concentration: not given; baseline: not given; direction: higher = stronger binding
Target: Histone acetyltransferase KAT6A, winged helix 1, GST fusion (KAT6A, Homo sapiens, UniProt Q92794, residues 1-85)
Notes: 8-mer, flanks averaged, mean of 2 arrays, mostly near background
Construct (chain): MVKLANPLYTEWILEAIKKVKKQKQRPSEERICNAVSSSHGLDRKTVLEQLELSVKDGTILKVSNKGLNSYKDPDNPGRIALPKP
Strand | E-score
ACGCACGA | 0.116
CGCATGCC | 0.307
TGGGGTAA | -0.162
ACTACATG | -0.0632

Series 3 — method: universal PBM; form: double-stranded DNA, one strand shown; matrix: in vitro; concentration: not given; direction: higher = stronger binding
Target: Sal-like protein 4, full length isoform B (SALL4, Homo sapiens, UniProt Q9UJQ4-2, residues 1-616)
Notes: 8-mer, flanks averaged, mean of replicates
Strand | E-score
GCGGACAA | 0.00387
ACATACGG | -0.0599
GCCAGCTA | -0.22

Further values, each from its own experiment
Substance | target | test | test system | conditions | how to read | quantity | result
PhoQ, residues 284 288 289 292 302 303 TNSAEL | PhoP, residues 12 14 15 18 19 SHWTV (Escherichia coli, UniProt P23836) | Sort-seq, item: YFP reporter | E. coli | PhoQ-PhoP variant library, with: 10 µM Mg2+ | baseline: high Mg2+ state, higher = stronger signaling | fold induction | 2.13

Repeated from above (series 3):
Strand | E-score
ACATACGG | -0.0599
